Measurements gathered from unrelated publications.
± gives the spread as reported.
B1: colicin E1 fragment 1–120; chain METAVAYYKDGVPYDDKGQVIITLLNGTPDGSGSGGGGGKGGSKSESSAAIHATAKWSTAQLKKTQAEQAARAKAAAEAQAKAKANRDALTQRLKDIVNEALRHNASRTPSATELAHANN

Molecule	assay	test system	conditions	endpoint	result
CSCC[C@H](NC(=O)[C@H](CC(C)C)NC(=O)[C@H](Cc1cnc[nH]1)NC(=O)CNC(=O)[C@@H](NC(=O)[C@H](C)NC(=O)[C@H](Cc1c[nH]c2ccccc12)NC(=O)[C@H](CCC(N)=O)NC(=O)c1ccc(NC(=O)CN2CCN(CC(=O)O)CCN(CC(=O)O)CCN(CC(=O)O)CC2)cc1)C(C)C)C(N)=O	–	ICR SCID mouse (PC-3 tumour), urine and bladder contents	intravenous, 185 kBq, 4 h	excreted dose	81.4 ± 2.85%
Cc1ccccc1NC(=O)Nc1ccc(CC(=O)N[C@@H](CCCCNC(=O)/C=C/c2cccnc2)C(=O)N[C@@H](CCCC(=O)O)C(=O)NC2(C(=O)NCCOCCOCCOCCOCC(=O)N[C@@H](CCCCNC(=S)Nc3ccc(C[C@H]4CN(CC(=O)O)CCN(CC(=O)O)CCN4CC(=O)O)cc3)C(N)=O)CCCCC2)cc1 [fluorine-18 labelled]	–	female C57BL/6 mice, B16-F10 tumour, colon	intravenous, 2 h	tissue uptake	2.8 ± 0.2 %ID/g
COc1cccc2c1C(=O)c1c(O)c3c(c(O)c1C2=O)C[C@@](O)(C(=O)CO)C[C@@H]3O[C@H]1C[C@H](NC(=O)[C@@H]2CCCN2C(=O)CNC(=O)[C@H](CC(C)C)NC(=O)[C@H](C)NC(=O)CP(=O)(O)O)[C@H](O)[C@H](C)O1	–	mouse, E0771 tumour-bearing, liver	intravenous, 92 µmol/kg	AUC	152 µM·h
CC(=O)N(O)CCCCCNC(=O)CCC(=O)N(O)CCCCCNC(=O)CCC(=O)N(O)CCCCCNC(=S)Nc1ccc(NC(=S)NCCOCCOCCOCCOCCC(=O)N[C@@H](CCC(=O)NCCOCCOCCOCCOCCC(=O)NCCCC[C@@H]2NC(=O)[C@@H](Cc3ccccc3)NC(=O)[C@H](CC(=O)O)NC(=O)CNC(=O)[C@H](CCCNC(=N)N)NC2=O)C(=O)NCCOCCOCCOCCOCCC(=O)NCCCC[C@@H]2NC(=O)[C@@H](Cc3ccccc3)NC(=O)[C@H](CC(=O)O)NC(=O)CNC(=O)[C@H](CCCNC(=N)N)NC2=O)cc1 [zirconium-89 labelled]	–	athymic nude mice female tumour-bearing, spleen	intravenous, 100 µCi, 4 h	tissue uptake	3.76 ± 0.31 %ID/g
N=C(N)NCCC[C@@H]1NC(=O)[C@H](CCCCNC(=O)CNC(=O)CNC(=O)CNC(=O)CC[C@H](NC(=O)CCOCCOCCOCCOCCNC(=O)c2ccc(NN)nc2)C(=O)NCC(=O)NCC(=O)NCC(=O)NCCCC[C@@H]2NC(=O)[C@@H](Cc3ccccc3)NC(=O)[C@H](CC(=O)O)NC(=O)CNC(=O)[C@H](CCCNC(=N)N)NC2=O)NC(=O)[C@@H](Cc2ccccc2)NC(=O)[C@H](CC(=O)O)NC(=O)CNC1=O [technetium-99m labelled]	γ-counting	female athymic nude mice, U-87 MG xenograft, intestine	intravenous, 0.5 h	tissue uptake	9.27 ± 1.15 %ID/g
melittin	CD titration	POPC 75% POPG 25% vesicles	pH 7.0, 60 °C	free energy of partitioning	-7.34 kcal/mol
COc1ccc2c(c1OCc1ccccc1)C[C@@H](C(=O)OCC(=O)NCCCC[C@H](NC(=O)CNC(=O)[C@H](CCCNC(=N)N)NC(=O)[C@H](CO)NC(=O)CNC(=O)CNC(=O)[C@H](Cc1ccc(O)cc1)NC(=O)[C@H](Cc1ccccc1)NC(=O)[C@H](Cc1ccccc1)NC(=O)[C@@H](NC(=O)COC(=O)[C@@H]1Cc3c(ccc(OC)c3OCc3ccccc3)CN1C(=O)C(c1ccccc1)c1ccccc1)[C@@H](C)O)C(=O)N[C@@H](CCCNC(=N)N)C(=O)N[C@@H](CC(N)=O)C(=O)N[C@@H](CC(N)=O)C(=O)N[C@@H](Cc1ccccc1)C(=O)N[C@@H](CCCCNC(=O)COC(=O)[C@@H]1Cc3c(ccc(OC)c3OCc3ccccc3)CN1C(=O)C(c1ccccc1)c1ccccc1)C(=O)N[C@H](C(=O)N[C@@H](CCC(=O)O)C(=O)N[C@@H](CCC(=O)O)C(=O)N[C@@H](Cc1ccc(O)cc1)C(=O)O)[C@@H](C)O)N(C(=O)C(c1ccccc1)c1ccccc1)C2	HPLC	human plasma	50 µM, 2 h, pH 7.4, 37 °C	remaining compound	~100%
CC(C)C[C@@H]1NC(=O)[C@@H]2CSSC[C@@H](C(=O)NCC(N)=O)NC(=O)[C@H](Cc3ccccc3)NC(=O)CNC(=O)[C@H](CC(N)=O)NC(=O)[C@@H]3CCCN3C(=O)CNC(=O)[C@@H]3CSSC[C@H](NC(=O)[C@H](CO)NC(=O)[C@H](CO)NC(=O)[C@H](C)NC(=O)[C@@H]4CCCN4C(=O)[C@H](CO)NC(=O)[C@H](CC(=O)O)NC(=O)CNC(=O)[C@H](CCCNC(=N)N)NC(=O)CNC(=O)[C@H]([C@@H](C)O)NC(=O)[C@H](C(C)C)NC(=O)[C@@H](NC(=O)CNC(=O)CN4CCN(CC(=O)O)CCN(CC(=O)O)CCN(CC(=O)O)CC4)CSSC[C@H](NC(=O)CNC(=O)[C@H](C)NC1=O)C(=O)N[C@@H](C(C)C)C(=O)N3)C(=O)N[C@@H](CO)C(=O)N[C@@H](CCC(N)=O)C(=O)N[C@@H](CC(=O)O)C(=O)N[C@@H](CO)C(=O)N[C@@H](CC(=O)O)C(=O)N2 [copper-64 labelled]	64Cu microPET	female nude mice, U-87 MG xenograft, tumour	intravenous, 1 h	tissue uptake	1.48 ± 0.53 %ID/g
N=C(N)NCCC[C@@H]1NC(=O)[C@H](CCCCNC(=O)[C@H](CC(=O)O)NC(=O)[C@H](CC(=O)O)NC(=O)[C@H](CC(=O)O)NC(=O)CC[C@H](NC(=O)CCOCCOCCOCCOCCNC(=O)c2ccc(NN)nc2)C(=O)N[C@@H](CC(=O)O)C(=O)N[C@@H](CC(=O)O)C(=O)N[C@@H](CC(=O)O)C(=O)NCCCC[C@@H]2NC(=O)[C@@H](Cc3ccccc3)NC(=O)[C@H](CC(=O)O)NC(=O)CNC(=O)[C@H](CCCNC(=N)N)NC2=O)NC(=O)[C@@H](Cc2ccccc2)NC(=O)[C@H](CC(=O)O)NC(=O)CNC1=O [technetium-99m labelled]	γ-counting	female athymic nude mice, U-87 MG xenograft, blood	intravenous, 1 h	tissue uptake	0.49 ± 0.08 %ID/g
CCN1C(=CC=CC=CC2=[N+](CCCCCC(=O)NCCCC[C@H](NC(=O)CN3CCN(CC(=O)O)CCN(CC(=O)O)CCN(CC(=O)O)CC3)C(=O)NCC(=O)NCC(=O)N[C@@H](Cc3ccc(O)cc3)C(=O)NCC(=O)N[C@H]3CSSC[C@@H]4NC(=O)CNC(=O)[C@H](C)NC(=O)[C@H](CC(C)C)NC(=O)[C@@H]5CSSC[C@@H](C(=O)NCC(N)=O)NC(=O)[C@H](Cc6ccccc6)NC(=O)CNC(=O)[C@H](CC(N)=O)NC(=O)[C@@H]6CCCN6C(=O)CNC(=O)[C@H](CSSC[C@H](NC(=O)[C@H](CO)NC(=O)[C@H]([C@@H](C)O)NC(=O)[C@@H]6CCCN6C(=O)[C@H](C)NC(=O)[C@H](Cc6c[nH]c7ccccc67)NC(=O)[C@H](CC(=O)O)NC(=O)CNC(=O)[C@H](CCCNC(=N)N)NC(=O)CNC(=O)[C@H](CCC(N)=O)NC(=O)[C@@H]6CCCN6C3=O)C(=O)N[C@@H](CO)C(=O)N[C@@H](CCC(N)=O)C(=O)N[C@@H](CC(=O)O)C(=O)N[C@@H](CO)C(=O)N[C@@H](CC(=O)O)C(=O)N5)NC(=O)[C@H](C(C)C)NC4=O)c3ccc4c(S(=O)(=O)[O-])cc(S(=O)(=O)O)cc4c3C2(C)C)C(C)(C)c2c1ccc1c(S(=O)(=O)O)cc(S(=O)(=O)O)cc21 (single isomer, unassigned) [copper-64 labelled]	microPET	female athymic nude mouse, U-87 MG xenograft, tumour	intravenous, 100 µCi, 4 h	tumour uptake	4.52 ± 0.31 %ID/g
B1 (colicin E1 fragment 1–120)	far-UV CD	peptide, 50 mM sodium phosphate	–	helical content	33 ± 8%
COc1cccc2c1C(=O)c1c(O)c3c(c(O)c1C2=O)C[C@@](O)(C(=O)CO)C[C@@H]3O[C@H]1C[C@H](NC(=O)CCC(=O)N[C@H]2CSSC[C@@H](C(=O)O)NC(=O)[C@H](C(C)C)NC(=O)[C@H](CO)NC(=O)CNC(=O)CNC(=O)[C@H](CCCNC(=N)N)NC(=O)[C@@H]3CCCN3C2=O)[C@H](O)[C@H](C)O1	shake flask	n-octanol/PBS	2.0 µM, pH 7.4	distribution coefficient	4.3
COc1cccc2c1C(=O)c1c(O)c3c(c(O)c1C2=O)C[C@@](O)(C(=O)CO)C[C@@H]3O[C@H]1C[C@H](NC(=O)[C@H](CC(C)C)NC(=O)[C@H](C)NC(=O)[C@H](CC(C)C)NC(=O)CCNC(=O)CCC(=O)O)[C@H](O)[C@H](C)O1	–	mouse, E0771 tumour-bearing, kidney	intravenous, 92 µmol/kg	AUC	771 µM·h

Some of these lines once more:
Molecule	assay	test system	conditions	endpoint	result
COc1cccc2c1C(=O)c1c(O)c3c(c(O)c1C2=O)C[C@@](O)(C(=O)CO)C[C@@H]3O[C@H]1C[C@H](NC(=O)[C@@H]2CCCN2C(=O)CNC(=O)[C@H](CC(C)C)NC(=O)[C@H](C)NC(=O)CP(=O)(O)O)[C@H](O)[C@H](C)O1	–	mouse, E0771 tumour-bearing, liver	intravenous, 92 µmol/kg	AUC	152 µM·h
CC(=O)N(O)CCCCCNC(=O)CCC(=O)N(O)CCCCCNC(=O)CCC(=O)N(O)CCCCCNC(=S)Nc1ccc(NC(=S)NCCOCCOCCOCCOCCC(=O)N[C@@H](CCC(=O)NCCOCCOCCOCCOCCC(=O)NCCCC[C@@H]2NC(=O)[C@@H](Cc3ccccc3)NC(=O)[C@H](CC(=O)O)NC(=O)CNC(=O)[C@H](CCCNC(=N)N)NC2=O)C(=O)NCCOCCOCCOCCOCCC(=O)NCCCC[C@@H]2NC(=O)[C@@H](Cc3ccccc3)NC(=O)[C@H](CC(=O)O)NC(=O)CNC(=O)[C@H](CCCNC(=N)N)NC2=O)cc1 [zirconium-89 labelled]	–	athymic nude mice female tumour-bearing, spleen	intravenous, 100 µCi, 4 h	tissue uptake	3.76 ± 0.31 %ID/g
